Assay results gathered from unrelated publications.
Each line is one published result; not all experiments were run side by side. Several values in a cell are separate wells, animals, samples, runs or records. Numbers after ± are the reported error.
Nuclear receptor subfamily 2 group C member 2 ligand-binding domain: Nuclear receptor subfamily 2 group C member 2, ligand-binding domain (Homo sapiens, UniProt P49116)
Sequence of UniProt O14980 (whole entry, looked up): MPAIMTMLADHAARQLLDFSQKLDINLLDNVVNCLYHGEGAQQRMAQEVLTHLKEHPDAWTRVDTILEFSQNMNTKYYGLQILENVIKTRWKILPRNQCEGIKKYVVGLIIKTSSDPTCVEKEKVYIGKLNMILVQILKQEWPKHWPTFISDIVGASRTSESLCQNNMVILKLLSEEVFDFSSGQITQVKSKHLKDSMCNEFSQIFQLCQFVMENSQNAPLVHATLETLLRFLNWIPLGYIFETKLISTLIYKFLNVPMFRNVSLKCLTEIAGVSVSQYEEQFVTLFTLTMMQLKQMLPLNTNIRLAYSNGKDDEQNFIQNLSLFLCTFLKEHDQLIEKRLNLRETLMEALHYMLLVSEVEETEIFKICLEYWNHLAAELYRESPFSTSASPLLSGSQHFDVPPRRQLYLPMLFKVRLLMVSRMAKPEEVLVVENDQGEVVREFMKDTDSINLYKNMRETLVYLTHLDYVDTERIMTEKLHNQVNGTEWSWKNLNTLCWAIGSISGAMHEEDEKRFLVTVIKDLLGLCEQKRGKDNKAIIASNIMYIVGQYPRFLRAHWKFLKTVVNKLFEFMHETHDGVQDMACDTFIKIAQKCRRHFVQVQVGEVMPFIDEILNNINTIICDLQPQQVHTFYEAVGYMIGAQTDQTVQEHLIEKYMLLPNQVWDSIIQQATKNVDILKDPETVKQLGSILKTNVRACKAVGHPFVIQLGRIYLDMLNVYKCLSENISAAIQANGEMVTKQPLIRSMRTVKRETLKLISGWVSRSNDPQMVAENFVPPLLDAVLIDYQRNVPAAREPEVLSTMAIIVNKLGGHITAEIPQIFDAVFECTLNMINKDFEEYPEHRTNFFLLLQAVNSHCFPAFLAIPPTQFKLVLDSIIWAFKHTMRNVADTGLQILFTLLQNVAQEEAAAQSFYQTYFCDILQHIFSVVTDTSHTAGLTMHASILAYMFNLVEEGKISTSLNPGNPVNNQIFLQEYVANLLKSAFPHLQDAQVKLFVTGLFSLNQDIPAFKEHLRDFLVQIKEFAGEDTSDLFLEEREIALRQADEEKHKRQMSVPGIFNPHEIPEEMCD
Sequence of UniProt P11388 (whole entry, looked up): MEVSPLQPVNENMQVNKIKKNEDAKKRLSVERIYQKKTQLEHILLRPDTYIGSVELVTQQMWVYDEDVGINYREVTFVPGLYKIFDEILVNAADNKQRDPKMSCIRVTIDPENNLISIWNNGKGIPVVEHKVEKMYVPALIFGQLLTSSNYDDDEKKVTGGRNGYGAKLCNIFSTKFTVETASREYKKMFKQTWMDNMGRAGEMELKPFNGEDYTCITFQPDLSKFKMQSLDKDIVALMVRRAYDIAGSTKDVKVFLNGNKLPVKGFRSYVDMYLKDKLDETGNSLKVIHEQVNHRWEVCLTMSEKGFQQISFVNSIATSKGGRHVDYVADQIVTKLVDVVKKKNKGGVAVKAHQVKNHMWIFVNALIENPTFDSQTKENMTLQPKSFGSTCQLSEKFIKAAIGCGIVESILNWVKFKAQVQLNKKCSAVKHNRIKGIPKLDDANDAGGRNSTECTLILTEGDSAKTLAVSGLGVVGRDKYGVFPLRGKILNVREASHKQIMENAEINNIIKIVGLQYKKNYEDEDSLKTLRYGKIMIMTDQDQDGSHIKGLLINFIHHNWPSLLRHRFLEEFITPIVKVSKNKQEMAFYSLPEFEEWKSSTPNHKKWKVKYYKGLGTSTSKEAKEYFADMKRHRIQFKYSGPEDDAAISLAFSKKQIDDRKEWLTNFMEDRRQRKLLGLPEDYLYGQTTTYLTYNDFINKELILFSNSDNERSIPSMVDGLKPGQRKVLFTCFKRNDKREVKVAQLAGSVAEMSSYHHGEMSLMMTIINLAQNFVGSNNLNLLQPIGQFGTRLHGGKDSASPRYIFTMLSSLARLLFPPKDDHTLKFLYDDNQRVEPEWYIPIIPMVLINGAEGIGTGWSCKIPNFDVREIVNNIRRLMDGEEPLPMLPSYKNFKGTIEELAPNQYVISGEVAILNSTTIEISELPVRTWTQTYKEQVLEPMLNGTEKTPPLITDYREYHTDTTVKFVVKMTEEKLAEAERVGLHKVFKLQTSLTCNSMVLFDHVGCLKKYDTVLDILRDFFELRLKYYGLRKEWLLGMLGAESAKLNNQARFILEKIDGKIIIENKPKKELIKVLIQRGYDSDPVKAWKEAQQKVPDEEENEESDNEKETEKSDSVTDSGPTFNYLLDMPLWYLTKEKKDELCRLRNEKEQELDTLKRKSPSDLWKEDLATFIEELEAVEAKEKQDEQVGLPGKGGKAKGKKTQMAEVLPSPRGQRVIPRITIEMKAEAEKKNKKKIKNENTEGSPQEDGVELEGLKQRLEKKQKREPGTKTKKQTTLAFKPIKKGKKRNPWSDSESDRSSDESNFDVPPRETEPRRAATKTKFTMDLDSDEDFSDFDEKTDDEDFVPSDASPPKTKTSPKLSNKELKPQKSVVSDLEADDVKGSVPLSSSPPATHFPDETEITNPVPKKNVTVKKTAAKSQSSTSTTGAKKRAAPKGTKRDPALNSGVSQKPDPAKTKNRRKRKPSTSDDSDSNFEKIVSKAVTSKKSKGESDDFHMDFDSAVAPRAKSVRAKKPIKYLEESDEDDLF
Sequence of UniProt P49116 (whole entry, looked up): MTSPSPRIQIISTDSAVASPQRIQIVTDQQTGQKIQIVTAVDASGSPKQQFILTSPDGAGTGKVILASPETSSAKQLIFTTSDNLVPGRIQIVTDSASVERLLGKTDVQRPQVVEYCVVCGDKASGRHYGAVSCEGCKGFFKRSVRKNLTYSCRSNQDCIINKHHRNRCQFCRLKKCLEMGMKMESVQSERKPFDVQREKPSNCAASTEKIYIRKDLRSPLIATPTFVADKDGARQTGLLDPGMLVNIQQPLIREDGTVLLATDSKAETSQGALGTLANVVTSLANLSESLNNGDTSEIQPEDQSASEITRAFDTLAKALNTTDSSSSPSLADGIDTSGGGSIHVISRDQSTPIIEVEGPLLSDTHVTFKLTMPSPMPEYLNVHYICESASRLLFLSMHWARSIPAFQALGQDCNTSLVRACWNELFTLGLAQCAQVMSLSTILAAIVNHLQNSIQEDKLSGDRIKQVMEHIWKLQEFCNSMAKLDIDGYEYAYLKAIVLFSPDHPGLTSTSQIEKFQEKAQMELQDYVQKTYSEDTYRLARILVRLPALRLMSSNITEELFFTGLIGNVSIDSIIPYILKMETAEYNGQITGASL
Sequence of UniProt P63208 (whole entry, looked up): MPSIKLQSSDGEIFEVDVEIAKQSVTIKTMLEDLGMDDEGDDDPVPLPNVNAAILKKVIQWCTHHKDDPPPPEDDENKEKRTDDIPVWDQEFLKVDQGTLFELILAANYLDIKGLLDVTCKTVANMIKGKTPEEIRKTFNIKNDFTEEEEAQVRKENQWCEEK
Sequence of UniProt Q704Y3 (whole entry, unmodified, looked up): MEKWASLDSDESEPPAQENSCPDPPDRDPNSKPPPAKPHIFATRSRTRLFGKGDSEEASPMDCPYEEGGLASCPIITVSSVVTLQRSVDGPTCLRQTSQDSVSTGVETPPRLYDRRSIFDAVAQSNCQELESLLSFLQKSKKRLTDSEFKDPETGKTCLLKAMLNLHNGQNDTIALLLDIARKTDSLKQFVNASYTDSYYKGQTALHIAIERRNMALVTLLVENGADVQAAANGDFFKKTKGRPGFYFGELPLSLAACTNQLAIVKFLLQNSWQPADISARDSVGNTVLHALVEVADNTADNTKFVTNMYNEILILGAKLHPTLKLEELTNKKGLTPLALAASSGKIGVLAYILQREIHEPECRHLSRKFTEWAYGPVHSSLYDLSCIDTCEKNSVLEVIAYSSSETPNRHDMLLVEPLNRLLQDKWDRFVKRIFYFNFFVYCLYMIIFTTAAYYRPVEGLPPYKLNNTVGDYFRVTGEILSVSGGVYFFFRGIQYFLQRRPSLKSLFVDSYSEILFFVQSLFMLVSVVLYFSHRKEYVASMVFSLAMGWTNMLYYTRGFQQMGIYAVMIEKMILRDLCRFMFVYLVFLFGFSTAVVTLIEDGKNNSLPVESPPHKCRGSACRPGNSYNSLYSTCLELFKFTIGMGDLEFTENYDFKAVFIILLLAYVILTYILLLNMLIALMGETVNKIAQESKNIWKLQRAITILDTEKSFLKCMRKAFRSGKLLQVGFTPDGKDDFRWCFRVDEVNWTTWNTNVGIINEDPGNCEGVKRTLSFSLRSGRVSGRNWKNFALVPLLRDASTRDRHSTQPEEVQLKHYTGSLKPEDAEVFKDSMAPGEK
Sequence of UniProt O08914 (whole entry, looked up): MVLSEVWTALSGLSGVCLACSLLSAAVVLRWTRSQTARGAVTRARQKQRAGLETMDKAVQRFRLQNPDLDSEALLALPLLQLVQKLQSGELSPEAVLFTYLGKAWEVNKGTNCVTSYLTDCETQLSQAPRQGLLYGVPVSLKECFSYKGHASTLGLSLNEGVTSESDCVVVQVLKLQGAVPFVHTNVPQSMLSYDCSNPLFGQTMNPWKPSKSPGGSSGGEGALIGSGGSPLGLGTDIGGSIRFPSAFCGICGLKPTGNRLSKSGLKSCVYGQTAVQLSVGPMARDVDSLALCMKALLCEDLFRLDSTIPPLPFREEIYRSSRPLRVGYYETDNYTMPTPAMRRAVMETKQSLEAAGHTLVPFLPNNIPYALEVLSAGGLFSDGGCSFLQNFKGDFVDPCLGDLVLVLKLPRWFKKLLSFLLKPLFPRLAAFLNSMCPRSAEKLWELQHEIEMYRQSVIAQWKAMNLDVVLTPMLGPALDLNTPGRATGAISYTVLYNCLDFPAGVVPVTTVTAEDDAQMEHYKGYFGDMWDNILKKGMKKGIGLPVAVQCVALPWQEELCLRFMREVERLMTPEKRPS

| Compound | target or system | test | test system | setting | how to read | endpoint | value |
| --- | --- | --- | --- | --- | --- | --- | --- |
| OC[C@H]1OC(O)[C@H](O)[C@@H](O)[C@@H]1O (some centres unmarked) | Hexokinase-3 (HK3, Homo sapiens, UniProt P52790) | isothermal titration calorimetry |  | concentration not given, 25 °C |  | binding stoichiometry | 0.65 ± 0.01 |
| C=CC(=O)N1CCC(COCC(=O)N2CCN(c3nc(-c4cnc(N)nc4C(F)F)nc(N4CCOC[C@@H]4C)n3)CC2)CC1 | Ephrin type-A receptor 4 (EPHA4, Homo sapiens, UniProt P54764) | KINOMEscan |  | 1 µM |  | remaining binding | 100% |
| O=C(NC1CCC1)c1ccc2nc(-c3cccc(NS(=O)(=O)NCCN4CCCCC4)c3)cn2c1 | ALK tyrosine kinase receptor (ALK, Homo sapiens, UniProt Q9UM73, C1156Y) | enzyme activity |  | 10 µM |  | remaining activity | 90% |
| O=c1nc(SCc2cc(F)cc(C(F)(F)F)c2)nc(SCc2ccc3nc(Cl)ccc3c2)[nH]1 | DNA topoisomerase 2-alpha (TOP2A, Homo sapiens, UniProt P11388) | ATPase activity |  | 7.8 µM, added: ATP 0.1 mM |  | ATP hydrolysis rate | 0.218 µM/min and 1.01 µM/min |
| CC[S+]([O-])c1nc(-c2ccccc2)cc(C(F)(F)F)n1 (centres unmarked) | Exportin-1 (XPO1, Homo sapiens, UniProt O14980) | nuclear export, high content imaging | HeLa Kyoto reporter | 15.8 µM, 2 h |  | cells with nuclear reporter | 2.8% and 0.69% and 3.46% |
| CCCCCCCC/C=C\CCCCCCCC(=O)NCCc1ccc(O)c(O)c1 | Transient receptor potential cation channel subfamily V member 1 (Trpv1, Mus musculus, UniProt Q704Y3, S511T) | ion current, agonist, whole-cell patch clamp |  | S511T |  | Hill coefficient | 2.54 ± 0.44 |
| c1ccc(-c2n[nH]cc2-c2ccnc3ccccc23)nc1 | Serine/threonine-protein kinase CBK1 (CBK1, Candida albicans, UniProt Q5AP53) | kinase binding, competitor, MIB/MS competition, refers to: CBK1 | Candida albicans cell lysate | 1 µM | reference: DMSO | log2 fold change | 1.35 |
| CN(C)C(=O)CCc1nc(-c2ccccc2)c(-c2ccccc2)o1 | COS-7 | WST-8 |  | 100 µM, 24 h, 0.1% DMSO, unit not given | reference: control | metabolic activity | 0.51 ± 0.45 |
| CC(=O)c1ccc2cc(S(=O)(=O)Nc3ccc(Br)cc3)ccc2c1 | Signal transducer and activator of transcription 3 (STAT3, Homo sapiens, UniProt P40763) | tyrosine phosphorylation, inhibitor, ELISA, refers to: phospho-Tyr705 |  |  |  | log IC50 | 0.479 |
| COc1cc(-c2cncc3c2CN(C)Cc2cc(N4CCNCC4)ccc2-3)cc(OC)c1OC | Testis-specific serine/threonine-protein kinase 1 (TSSK1B, Homo sapiens, UniProt Q9BXA7) | kinase activity |  | 1 µM, human enzyme, added: ATP 10 µM | reference: DMSO control | remaining activity | 107% |
| CCCCCCCCC(=O)c1cc(O)c(O)c(O)c1 | COS-7 | WST-8 |  | 30 µM, 24 h, 0.1% DMSO, unit not given | reference: vehicle control | metabolic activity | 0.96 ± 0.03 |
| O=C1c2cccc(O)c2C(=O)c2c(O)cc(CO)cc21 | HepaRG co-cultured with HK-2 | MTT |  | 33.33 µM, 48 h | reference: untreated control | cell viability | 67.7 ± 6.52% |
| C[C@@](Cc1ccc(O)c(O)c1)(NN)C(=O)O | Nuclear receptor subfamily 2 group C member 2 ligand-binding domain | SPR imaging |  | 600 nM |  | koff | 5.56e-07 s⁻¹ |
| O=C(Nc1cnccc1Cl)N1CCN(Cc2ccc3c(c2)OC(F)(F)O3)CC1 | Fatty-acid amide hydrolase 1 (Faah, Mus musculus, UniProt O08914) | enzyme activity, inhibitor, ex vivo | rat, brain | oral, 8 h |  | ED50 | 12.5 mg/kg |
| O=C1OC(c2ccccc2)=N/C1=C\c1ccccc1 | Pancreatic alpha-amylase (Homo sapiens, UniProt P04746) | inhibitor, Lineweaver-Burk |  | 300 ppm, added: starch substrate |  | Km | 895 µM |
| O=C(O)[C@@H]1CCCN1c1ncnc2[nH]cnc12 (racemic) | S-phase kinase-associated protein 1 (SKP1, Homo sapiens, UniProt P63208) | binding, affinity selection mass spectrometry |  |  | reference: other proteins in batch | log fold enrichment | 0.0403 |
| Clc1ccc(C(Cn2ccnc2)OCc2ccsc2Cl)c(Cl)c1 (centres unmarked) | Nuclear receptor subfamily 2 group C member 2 ligand-binding domain | binding |  |  |  | koff | 3.97e-07 s⁻¹ |
| Cc1cc(O)c2c(c1)C(=O)c1cc(O)cc(O)c1C2=O | HepaRG co-cultured with HK-2 | MTT |  | 266.67 µM, 24 h | reference: untreated control | cell viability | 34.3 ± 3.68% |
| COc1ccccc1N1CCN(CCCCN2CCc3ccccc3C2=O)CC1 | 5-hydroxytryptamine receptor 4 (HTR4, Homo sapiens, UniProt Q13639) | radioligand binding |  | concentration not given |  | inhibition | 9.7% |
| Nc1ncnc2c1ncn2[C@@H]1O[C@H](COP(=O)(O)OP(=O)(O)O)[C@@H](O)[C@H]1O | Creatine kinase U-type, mitochondrial (CKMT1A, Homo sapiens, UniProt P12532, H99K) | substrate, Kinase-Glo luminescence |  | pH 7.0, reverse reaction, H61K mutant, added: second substrate in excess |  | kcat | 5 ± 1 s⁻¹ |

Repeated from above:
| Compound | target or system | test | test system | setting | how to read | endpoint | value |
| --- | --- | --- | --- | --- | --- | --- | --- |
| C[C@@](Cc1ccc(O)c(O)c1)(NN)C(=O)O | Nuclear receptor subfamily 2 group C member 2 ligand-binding domain | SPR imaging |  | 600 nM |  | koff | 5.56e-07 s⁻¹ |
| O=c1nc(SCc2cc(F)cc(C(F)(F)F)c2)nc(SCc2ccc3nc(Cl)ccc3c2)[nH]1 | DNA topoisomerase 2-alpha (TOP2A, Homo sapiens, UniProt P11388) | ATPase activity |  | 7.8 µM, added: ATP 0.1 mM |  | ATP hydrolysis rate | 0.218 µM/min and 1.01 µM/min |
